Assay results of several laboratories.
Protocols differ between the studies behind these lines. Several values in a cell are separate wells, animals, samples, runs or records. Numbers after ± are the reported error.

`CC[C@H](C)[C@H](NC(=O)CN)C(=O)NCC(=O)N[C@@H](C)C(=O)N[C@H](C(=O)N[C@@H](CC(C)C)C(=O)N[C@@H](CCCCN)C(=O)N[C@H](C(=O)N[C@@H](CC(C)C)C(=O)N[C@H](C(=O)N[C@H](C(=O)NCC(=O)N[C@@H](CC(C)C)C(=O)N1CCC[C@H]1C(=O)N[C@@H](C)C(=O)N[C@@H](CC(C)C)C(=O)N[C@H](C(=O)N[C@@H](CO)C(=O)N[C@@H](Cc1c[nH]c2ccccc12)C(=O)N[C@H](C(=O)N[C@@H](CCCCN)C(=O)N[C@@H](CCCNC(=N)N)C(=O)N[C@@H](CCCCN)C(=O)N[C@@H](CCCNC(=N)N)C(=O)N[C@@H](CCC(N)=O)C(=O)N[C@@H](CCC(N)=O)C(N)=O)[C@@H](C)CC)[C@@H](C)CC)[C@@H](C)O)[C@@H](C)O)C(C)C)C(C)C`: hemolysis “inhibited” (rat erythrocytes; concentration not given, 30 min, pH 7.4, 37 °C, added: Escherichia coli K-235 LPS, 1:5 w/w).
For `CC[C@@]12SS[C@]3(C(=O)N1C)[C@@H](O)C1(C45c6ccccc6N[C@@H]4N4C(=O)[C@]6([C@@H](C)O)SS[C@]4(C(=O)N6C)[C@H]5O)c4ccccc4N[C@@H]1N3C2=O` (stereo partly drawn), the IC50 was 30 nM (HT-29; cell growth or viability, SRB).
`CC[C@H](C)[C@H](NP(=O)(OCCOCn1cnc2c(=O)[nH]c(N)nc21)Oc1ccccc1)C(=O)OCc1ccccc1` (stereo partly drawn) — result for “minimal cytotoxic concentration”: greater than 100 µM (HEL; altered cell morphology).
For `CC(C)C[C@H](NC(=O)[C@H](C)NC(=O)[C@H](CCCCN)NC(=O)[C@H](CC(C)C)NC(=O)[C@H](CC(C)C)NC(=O)[C@H](CCCCN)NC(=O)[C@H](CCCCN)NC(=O)[C@H](CC(C)C)NC(=O)[C@H](CC(C)C)NC(=O)[C@H](CCCCN)NC(=O)[C@H](CC(C)C)NC(=O)[C@H](CC(C)C)NC(=O)[C@@H](N)CCCCN)C(=O)NCC(N)=O`, “minimal hemolytic concentration” read 8 µM (human erythrocytes; 1 h, 37 °C, hemolysis ≤5%).
With `CC[C@H](C)[C@@H]1NC(=O)[C@H](Cc2c[nH]c3ccccc23)NC(=O)CNC(=O)c2cc3cc(c2)C(=O)NC[C@@H](C(=O)NCCC(=O)NCCC(=O)N[C@@H](CCCCN)C(N)=O)NC(=O)[C@H](CCCNC(=N)N)NC(=O)[C@@H](CCCNC(=N)N)NC(=O)[C@H](CCCNC(=N)N)NC(=O)[C@H](Cc2ccc4ccccc4c2)NC(=O)[C@H](Cc2ccccc2)NC(=O)[C@H](CNC3=O)NC(=O)[C@H](C)NC(=O)[C@H](Cc2ccc(O)cc2)NC1=O` the cellular uptake was 163% (HeLa; flow cytometry; 5 µM, 2 h, FITC-labelled peptide; reference: CPP1).
Under “minimal cytotoxic concentration”, `Nc1nc2c(ncn2COCCOP(=O)(Oc2ccccc2)N2CCC[C@H]2C(=O)OCc2ccccc2)c(=O)[nH]1` (stereo partly drawn) is recorded as greater than 100 µM (HEL; altered cell morphology).
`C=CC[C@H](NCc1ccccc1)C(=O)N[C@@H](Cc1c[nH]c2ccccc12)C(=O)NCc1ccc(-c2ccccc2)cc1`: “minimum cytotoxic concentration” no less than 100 µM (Vero; cell morphology, microscopy; 5 (unit not given)).
`CCCCN(CCCC)N=O` — result for “γH2A.X fold increase”: 1.5 to 1.8 fold (HepaRG, 3D spheroids; highest tested concentration, 24 h, plus 5 days, added: hEGF 100 ng/mL; reference: vehicle).
`CC[C@@]12SS[C@]3(C(=O)N1C)[C@@H](O)[C@]1(C45c6ccccc6N[C@@H]4N4C(=O)[C@@]6(CC)SS[C@@]4(C(=O)N6C)[C@H]5O)c4ccccc4N[C@@H]1N3C2=O` (stereo partly drawn) has an IC50 of 330 nM (SF-268; cell growth or viability, SRB).
With `CCN(N=O)C(C)C` the ATP level was 76.5% (HepaRG 2D; cell viability; concentration not given, 24 h; reference: vehicle).
The IndC50 of `Cn1c(COP(=O)(NCCBr)NCCBr)cnc1[N+](=O)[O-]` is reported as 2.5 µM (cryopreserved human hepatocytes; RT-PCR, refers to: CYP3A4 mRNA; no induction at 1 µM, lower limit).
Under “minimal cytotoxic concentration”, `COC(=O)[C@@H](NP(=O)(OCCOCn1cnc2c(=O)[nH]c(N)nc21)Oc1cccc2ccccc12)C(C)C` (stereo partly drawn) is recorded as greater than 100 µM (HEL; altered cell morphology).
For `CN[C@H](C(=O)N[C@H](C(=O)N(C)[C@H](c1noc(=O)[nH]1)C(C)C)C(C)C)C(C)(C)c1ccccc1`, the IC50 was greater than 10000 nM (HeLa; cell growth or viability, MTT).
For `O=NN1CCN(C2CCCC2)CC1`, the relative survival was 73.7% (HepaRG, 3D spheroids; flow cytometry micronucleus; highest tested concentration, 24 h, plus 6 days hEGF; reference: vehicle).
`CO[C@]1(COP(=O)(N[C@@H](C)C(=O)OCc2ccccc2)Oc2ccccc2)O[C@@H](n2ccc(N)nc2=O)C(F)(F)[C@@H]1O` (stereo partly drawn): “minimum cytotoxic concentration” no less than 100 µM (Vero; cell morphology, microscopy; 5 (unit not given)).
For `pneumocandin K`, the hemolysis was greater than 50% (human erythrocytes; 102.4 µg/mL, 1 h, 37 °C; reference: Tween 20).
Under “maximum non-lethal concentration”, `CC[C@H](C)[C@H](NC(=O)[C@H](CCCNC(=N)N)NC(=O)[C@H](CCCNC(=N)N)NC(=O)[C@H](CC(C)C)NC(=O)[C@H](Cc1c[nH]c2ccccc12)NC(=O)[C@H](C)NC(=O)[C@H](CCCCN)NC(=O)[C@@H](NC(=O)[C@H](CCCNC(=N)N)NC(=O)[C@H](CCCNC(=N)N)NC(=O)[C@H](CC(C)C)NC(=O)[C@@H](N)Cc1c[nH]c2ccccc12)[C@@H](C)CC)C(=O)N[C@@H](CCCCN)C(=O)N[C@@H](C)C(=O)N[C@@H](CC(C)C)C(=O)N[C@@H](CC(N)=O)C(=O)N[C@@H](CCCNC(=N)N)C(=O)N[C@@H](CCC(N)=O)C(=O)N[C@@H](CC(C)C)C(=O)NCC(=O)N[C@H](C(=O)N[C@@H](C)C(=O)N[C@@H](C)C(N)=O)C(C)C` is recorded as less than 40 µM (human pleural mesothelial cells (CRL-9444); LIVE/DEAD calcein-AM/EthD-1; 24 h, 37 °C; reference: untreated).
With `CC[C@H](C)[C@H](NC(=O)[C@H](Cc1ccccc1)NC(=O)[C@H](CCC(=O)O)NC(=O)[C@H](CCCCNC(=O)COCCOCCNC(=O)COCCOCCNC(=O)CC[C@H](NC(=O)CCCCCCCCCCCCCCCCC(=O)O)C(=O)O)NC(=O)[C@H](C)NC(=O)[C@H](C)NC(=O)[C@H](CCC(N)=O)NC(=O)CNC(=O)[C@H](CCC(=O)O)NC(=O)[C@H](CC(C)C)NC(=O)[C@H](Cc1ccc(O)cc1)NC(=O)[C@H](CO)NC(=O)[C@H](CO)NC(=O)[C@@H](NC(=O)[C@H](CC(=O)O)NC(=O)[C@H](CO)NC(=O)[C@@H](NC(=O)[C@H](Cc1ccccc1)NC(=O)[C@@H](NC(=O)CNC(=O)[C@H](CCC(=O)O)NC(=O)C(C)(C)NC(=O)[C@@H](N)Cc1cnc[nH]1)[C@@H](C)O)[C@@H](C)O)C(C)C)C(=O)N[C@@H](C)C(=O)N[C@@H](Cc1c[nH]c2ccccc12)C(=O)N[C@@H](CC(C)C)C(=O)N[C@H](C(=O)N[C@@H](CCCNC(=N)N)C(=O)NCC(=O)N[C@@H](CCCNC(=N)N)C(=O)NCC(=O)O)C(C)C` the responding donors was 9.9% (human PBMC; T-cell proliferation; 30 µg/mL, stimulation index above 2.0).
For `NCCc1cc(O)c(O)cc1O`, the viability was roughly 30% (SH-SY5Y; cell growth or viability, CCK-8; 200 µM, 16 h).
For `CN(C)N=O`, the ATP level was 85.6% (HepaRG 2D; cell viability; concentration not given, 24 h; reference: vehicle).
`CN1C(=O)[C@]23SS[C@@]1(C)C(=O)N2[C@H]1Nc2ccccc2[C@@]1([C@@]12c4ccccc4N[C@@H]1N1C(=O)[C@@]4(C)SS[C@]1(C(=O)N4C)[C@H]2O)[C@@H]3O` has an IC50 of 20 nM (HT-29; cell growth or viability, SRB).
For `Cc1cnc2cc(C)c3c(nc(N)n3C)c2n1`, “lowest toxic concentration” read 100 nM (rat primary midbrain neurons; dopaminergic neuron loss, refers to: TH+ over MAP2+ neurons; 24 h).
The LC50 of `C#CCCC[C@H]1OC(=O)[C@H](C(C)C)N(C)C(=O)[C@@H]2CCCN2C(=O)[C@H]([C@@H](C)CC)OC(=O)[C@H]([C@@H](C)CC)N(C)C(=O)[C@H]([C@@H](C)CC)NC(=O)[C@H]1C` is reported as greater than 30000 nM (HEK293; resazurin reduction; 24 h).
The expression level of `Clc1ccc(-c2nc3sccn3c2C=NOCc2ccc(Cl)c(Cl)c2)cc1` is reported as 8.29 ± 3.33 (Caco-2 cells, CAR-transfected; refers to: CYP2B6; 1 µM, 24 h, unit not given; reference: vector control).
`C[C@H](N)C(=O)N[C@@H](C)C(=O)N[C@@H](CCCCN)C(=O)N[C@@H](CCCCN)C(=O)N[C@@H](C)C(=O)N[C@@H](C)C(=O)N[C@@H](C)C(=O)N[C@@H](CCCCN)C(=O)N[C@@H](CCCCN)C(=O)N[C@@H](C)C(=O)N[C@@H](C)C(=O)N[C@@H](C)C(=O)N[C@@H](CCCCN)C(=O)N[C@@H](CCCCN)C(=O)N[C@@H](C)C(=O)N[C@@H](C)C(=O)N[C@@H](C)C(=O)N[C@@H](CCCCN)C(=O)N[C@@H](CCCCN)C(=O)N[C@@H](C)C(N)=O` — result for “inhibition of cellular uptake”: 49% (L929; FACS; concentration not given, added: hypertonic sucrose).
`CCc1cccc(C)c1N(C(=O)CCl)C(C)COC` (stereo not drawn) gave an LD50 of 1.42 µg/mL (HEK293; neutral red uptake; 24 h).
Under “minimal cytotoxic concentration”, `CC(C)C[C@H](NP(=O)(OCCOCn1cnc2c(=O)[nH]c(N)nc21)Oc1ccccc1)C(=O)OCc1ccccc1` (stereo partly drawn) is recorded as greater than 100 µM (HEL; altered cell morphology).
`CC[C@H](C)[C@H](NC(=O)[C@H](CCCCN)NC(=O)[C@H](Cc1c[nH]c2ccccc12)NC(=O)[C@H](Cc1c[nH]c2ccccc12)NC(=O)[C@H](CCCCN)NC(=O)[C@H](CCCCN)NC(=O)[C@H](CCCCN)NC(=O)[C@H](Cc1c[nH]c2ccccc12)NC(=O)[C@H](CCCCN)NC(=O)[C@H](CCCCN)NC(=O)[C@H](Cc1c[nH]c2ccccc12)NC(=O)[C@H](CCCCN)NC(=O)[C@H](CCCCN)NC(=O)[C@@H](NC(=O)[C@@H](NC(=O)[C@H](CCCCN)NC(=O)[C@@H](N)CCCNC(=N)N)[C@@H](C)CC)[C@@H](C)CC)C(=O)N[C@@H](Cc1c[nH]c2ccccc12)C(=O)N[C@@H](Cc1c[nH]c2ccccc12)C(=O)N[C@@H](CCCCN)C(=O)NCCOCCOCC(N)=O` gave a hemolysis of less than 10% (mouse erythrocytes; 128 µM, 1 h, pH 7.4, 37 °C).
`CN(CCCC(=O)O)N=O` has an ATP level of 77% (HepaRG 2D; cell viability; concentration not given, 24 h; reference: vehicle).
For `CC[C@H](C)[C@H](NC(=O)[C@H](CC(=O)O)NC(=O)[C@H](Cc1ccccc1)NC(=O)[C@H](CC(C)C)NC(=O)CN)C(=O)N[C@H](C(=O)N[C@@H](CCCCN)C(=O)N[C@@H](CCCCN)C(=O)N[C@H](C(=O)N[C@H](C(=O)NCC(=O)N[C@@H](C)C(=O)N[C@@H](CC(C)C)C(=O)N[C@@H](CCCCN)C(N)=O)C(C)C)C(C)C)C(C)C`, “minimal hemolytic concentration” read 2 µM (human erythrocytes; 1 h, 37 °C, hemolysis ≤5%).
`CC(C)N(N=O)C(C)C` has a relative survival of 93.5% (HepaRG, 3D spheroids; concentration not given, 24 h, highest tested concentration, hEGF 6 days; reference: vehicle).
For `C=C(C[C@H](N)C(=O)O)C(=O)NC1CC1`, “lowest significantly active concentration” read 100 µM (SK-BR-3 cells; cytotoxicity; 24 h; reference: vehicle).
With `NC(=O)NO` the TD50 was 28000 ± 1010 µM (ARPE-19, uninfected; cytotoxicity, CellTiter-Glo; 14 d).
`CC(O)[C@@]12SS[C@]3(C(=O)N1C)[C@@H](O)[C@]1([C@@]45c6ccccc6N[C@@H]4N4C(=O)[C@]6(C)SS[C@]4(C(=O)N6C)[C@H]5O)c4ccccc4N[C@@H]1N3C2=O` (stereo partly drawn) gave an IC50 of 290 nM (NCI-H460; cell growth or viability, SRB).
For `O=C(c1cc(Cc2n[nH]c(=O)c3ccccc23)ccc1F)N1CCN(C(=O)C2CC2)CC1`, “lowest significantly active concentration” read 10 µM (SK-BR-3 cells; cytotoxicity; 24 h; reference: vehicle).
For `C/C=C(/C)C(=O)O[C@H]1C(C)=C2[C@H]([C@@H]1OC(=O)CCCCCCC)[C@@](C)(OC(C)=O)C[C@H](OC(=O)CCCCCCCCCCCNC(=O)C[C@H](N)C(=O)N[C@@H](CCC(=O)N[C@@H](CCC(=O)N[C@@H](CCC(=O)N[C@@H](CCC(=O)O)C(=O)O)C(=O)O)C(=O)O)C(=O)O)[C@@]1(O)[C@H]2OC(=O)[C@@]1(C)O`, the selectivity ratio was 57 fold and ~60 fold (TSU versus LNCaP; clonal survival; 72 h; reference: IC50 TSU over LNCaP).

Excerpt of the above:
The IndC50 of `Cn1c(COP(=O)(NCCBr)NCCBr)cnc1[N+](=O)[O-]` is reported as 2.5 µM (cryopreserved human hepatocytes; RT-PCR, refers to: CYP3A4 mRNA; no induction at 1 µM, lower limit).
Under “minimal cytotoxic concentration”, `COC(=O)[C@@H](NP(=O)(OCCOCn1cnc2c(=O)[nH]c(N)nc21)Oc1cccc2ccccc12)C(C)C` (stereo partly drawn) is recorded as greater than 100 µM (HEL; altered cell morphology).
For `CN[C@H](C(=O)N[C@H](C(=O)N(C)[C@H](c1noc(=O)[nH]1)C(C)C)C(C)C)C(C)(C)c1ccccc1`, the IC50 was greater than 10000 nM (HeLa; cell growth or viability, MTT).
For `O=NN1CCN(C2CCCC2)CC1`, the relative survival was 73.7% (HepaRG, 3D spheroids; flow cytometry micronucleus; highest tested concentration, 24 h, plus 6 days hEGF; reference: vehicle).
